Assay results collected from several papers.
Lines come from different studies, so protocols differ. “And” joins repeats or separate records; there may be more than shown.
Target: Cytochrome P450 1A2 (CYP1A2, Homo sapiens, UniProt P05177)
Sequence of UniProt P05177 (whole entry, looked up): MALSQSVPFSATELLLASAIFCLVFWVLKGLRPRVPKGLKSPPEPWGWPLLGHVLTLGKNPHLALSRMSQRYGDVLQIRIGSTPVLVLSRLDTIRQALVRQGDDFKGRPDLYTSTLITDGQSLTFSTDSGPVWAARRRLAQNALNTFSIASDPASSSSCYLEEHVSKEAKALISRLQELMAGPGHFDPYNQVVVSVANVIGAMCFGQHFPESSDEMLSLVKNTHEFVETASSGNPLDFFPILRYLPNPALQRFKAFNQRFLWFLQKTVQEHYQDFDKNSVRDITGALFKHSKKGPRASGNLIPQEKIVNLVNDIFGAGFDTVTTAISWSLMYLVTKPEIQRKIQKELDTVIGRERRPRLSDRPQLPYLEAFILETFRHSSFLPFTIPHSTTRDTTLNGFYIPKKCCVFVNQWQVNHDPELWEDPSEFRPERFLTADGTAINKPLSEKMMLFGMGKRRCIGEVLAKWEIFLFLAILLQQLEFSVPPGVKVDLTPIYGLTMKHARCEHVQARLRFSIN

C=CC(=O)Nc1cc(Nc2nccc(-c3cn(C)c4ccccc34)n2)c(OCC(F)(F)F)nc1N(C)CCN(C)C
activity vs control (enzyme activity, inhibitor; human, liver microsomes; 0.1 µM): 70.4%

CCC1CC2C(C)=CC3C(=O)CCCC3C=CC(C)=CC2C(=O)O1 (stereo not drawn)
remaining activity (human liver microsomes; 10 µM, 10 min, pH 7.4, together with: phenacetin 20 µM; relative to: untreated): 116%

O=C(CS(=O)(=O)Cc1ccco1)C12CC3CC(CC(C3)C1)C2
inhibition (enzyme activity, inhibitor; 10 µM): 0%

Cc1ccc(OCC(=O)N(Cc2cccs2)c2ccn[nH]2)cc1
inhibition (enzyme activity, inhibitor, mass spectrometry; human, liver microsomes; 10 µM): 41%

CC(C)Cn1c(SCC(=O)N2CCc3ccccc3C2)nc2cc(Cl)ccc2c1=O
inhibition (enzyme activity, inhibitor, fluorescence; insect cell microsomes; 10 µM): 65%

CC1CCC2(OC1)OC1CC3C4CC=C5CC(OC6OC(CO)C(OC7OC(CO)C(O)C7O)C(O)C6OC6OC(C)C(O)C(O)C6O)CCC5(C)C4CCC3(C)C1(O)C2C (stereo not drawn)
remaining activity (phenacetin O-deethylation; pooled human liver microsomes; 100 µM, 1 h, pH 7.4; relative to: vehicle): 24.5%

NS(=O)(=O)NCC(F)(F)c1ccccc1F
IC50 (enzyme activity, inhibitor): > 74 µM and > 120 µM

COc1cc(OC)c(F)c(/C=C/c2cnc3ccn(S(=O)(=O)c4cn(CCF)cn4)c3n2)c1F
inhibition (enzyme activity, inhibitor; human, liver microsomes; 10 µM, 20 min, pH 7.4): 28%

CC(C)(C)[C@H](NC(=O)[C@H](CCONC(=N)N)NC(=O)Cc1ccc(CNC(=N)N)cc1)C(=O)N[C@@H](CCONC(=N)N)C(=O)NCc1ccc(C(=N)N)cc1
enzyme activity (primary human hepatocytes; up to 100 µM, 2 h): no effect

Repeated from above:
CC(C)Cn1c(SCC(=O)N2CCc3ccccc3C2)nc2cc(Cl)ccc2c1=O
inhibition (enzyme activity, inhibitor, fluorescence; insect cell microsomes; 10 µM): 65%
